Measurements pooled from the literature.
Lines come from different studies, so protocols differ. ± gives the spread as reported.

| SMILES | tested on | test | test system | conditions | scale | endpoint | value |
| --- | --- | --- | --- | --- | --- | --- | --- |
| CCn1cc(-c2cc(Cn3ccoc3=N)cc3c2CCN([C@@H](C)c2cc(OC)ccn2)C3=O)c(C(F)(F)F)n1 | OVTOKO | cell growth, inhibitor |  | 120 h |  | EC50 | 0.227 µM |
| Cc1nc(NC(=O)N2CCC[C@H]2C(N)=O)sc1-c1ccnc(C(C)(C)C(F)(F)F)c1 | MCF7/luciferase, wild type | cell proliferation |  |  |  | maximum inhibition | 94.8% |
| Nc1cccc2c1CN(C1CCC(=O)NC1=O)C2=O (centres unmarked) | bone marrow CD138+ myeloma cells | XTT |  | 2 µM, phenol red-free RPMI |  | viability | 8% |
| C[C@H]1Oc2cc(cnc2N)-c2c(nn(C)c2C#N)CN(C)C(=O)c2ccc(F)cc21 | NLRP3 inflammasome (mouse) |  | mouse BMDM | 10 µM |  | inhibition | -17.7% |
| C=CC(=O)N1CCC[C@@H](n2nc(-c3ccc(Oc4ccccc4)cc3)c3c(N)ncnc32)C1 | Ramos | calcium flux, FLIPR |  | 1 h preincubation |  | maximum inhibition | 92.9% |
| CNC(=O)c1cc(Oc2ccc(NC(=O)Nc3ccc(Cl)c(C(F)(F)F)c3)cc2)ccn1 | BEAS-2B and A549 | MTT |  |  | reference: IC50 BEAS-2B over IC50 A549 | selectivity ratio | 5.4 |
| CC#CC(=O)N1CCC[C@H]1c1nc(-c2ccc(C(=O)Nc3ccccn3)cc2)c2c(N)nccn12 | Ramos | calcium flux, FLIPR |  |  |  | maximal inhibition | ≤ 90% |
| CCN1CCN(Cc2ccc(NC(=O)Nc3ccc(Oc4cc(NC)ncn4)cc3)cc2C(F)(F)F)CC1 | iCell Cardiomyocytes (hiPSC-derived) | CellTiter-Glo |  | concentration not given, 24 h | reference: control | ATP level | 102% |
| Cn1cc(Nc2nccc(-c3ccc4c(c3)CN(C3COC3)CC[C@H]4NC(=O)c3cn(C(C)(C)C)nn3)n2)cn1 | human B cells |  |  | 100 nM, 64 h, stimulation-upregulated genes, added: anti-IgM |  | number of upregulated genes | 0 |
| COc1cccc2c1C(=O)c1c(O)c3c(c(O)c1C2=O)C[C@@](O)(C(=O)CO)C[C@@H]3O[C@H]1C[C@H](N)[C@H](O)[C@H](C)O1 | HepG2 | protein level, measured: PERK |  | 24 h |  | representative mode point of departure | 0.0324 µM |
| O=C(O)c1ccc(-c2c[nH]c3ncc(-c4ccccc4)cc23)cc1C1CCCC1 | SK-OV-3 | ATP |  | 0.01 µM, 4 days, 3D gellan gum culture | reference: untreated | relative cell number | 101% |
| C[C@H]1CN(C2COC2)CCN1c1ccc(Nc2cc(-c3ccnc(N4CCn5c(cc6c5CC(C)(C)C6)C4=O)c3CO)cn(C)c2=O)nc1 | TMD8 RAC2 knockout | calcium flux, FLIPR |  | 2 h preincubation |  | IC50 | 0.0011 µM |
| c1cnc2c(c1)ccc1cccnc12 | differentiated THP-1 |  |  | 25 µg/mL | reference: albendazole and praziquantel | IL-10 mRNA level | increased |
| CCn1cc(-c2cc(Cn3ccnc3)cc3c2CCN([C@H](c2cc(OC)ccn2)C2CC2)C3=O)c(C(F)(F)F)n1 | RT-4 | cell growth, inhibitor |  | 120 h |  | EC50 | 12.1 µM |
| CC(C)CC(=O)C(=O)O |  | binding, equilibrium dialysis LC-MS |  | 5 µM, thermostabilized A2AR-BRIL construct | reference: no-protein control, direction not given | z-scored log2 fold change | -0.0335 |
| CC(C)NCC(O)c1ccc(O)c(O)c1 (centres unmarked) | mouse ventricular cardiomyocytes |  |  | dose not given, 0.399 s |  | sarcomere length | 1.8 µm |
| CC(C)(C)c1cc(NC(=O)Nc2ccc(-c3cn4c(n3)sc3cc(OCCN5CCOCC5)ccc34)cc2)no1 | iCell Cardiomyocytes (hiPSC-derived) | xCELLigence Cardio impedance |  | concentration not given, 2 h | reference: control | beat rate | 96.1% |
| Cn1cc(-c2ccc(-c3cncc(Cl)c3N3CCC4(CCNC4=O)CC3)cc2)cn1 | COLO 205 | gene expression, microarray, measured: CALD1 mRNA |  | concentration not given, 6 h | reference: untreated cells | log2 fold change | 2.01 |
| C[C@H]1[C@@H](O)O[C@@H]2O[C@@]3(C)CC[C@H]4[C@H](C)CC[C@@H]1[C@@]24OO3 | THP-1 | annexin V/PI flow cytometry, measured: annexin V+/PI+ |  | 0.2 µM, 24 h |  | late apoptotic cells | 1.1% |
| COc1cc2ncnc(Cc3cccc(-c4ccccc4CO)c3)c2cc1OC | A549 | mitochondrial oxygen consumption, Seahorse XF96 |  | 10 µM |  | inhibition | 20% |
| CC(C)(C)c1cc(O)ccc1O | KRAS wild-type lung cancer cells | MTT |  | concentration not given, 48 h, 2D culture, single agent |  | cell viability | no effect |
| Cc1nc2c([nH]1)c(=O)n(C)c(=O)n2Cc1ccco1 | HaCaT keratinocytes, benzo[a]pyrene-induced | LC-MS |  | 2 µM, 6 h, added: imiquimod 0.5 µM |  | imiquimod metabolism | no effect |
| C[C@@H]1CN(C(=O)c2ccc(NC(=O)c3cc(O[C@H](C)c4c(Cl)ccc(F)c4Cl)c(N)nn3)cc2)C[C@H](C)N1 | Ba/F3 EML4-ALK variant 1 S1206F | cell viability |  |  |  | IC50 | 0.0222 µM |
| FC(F)(F)Oc1ccc(CNc2ccc3nc(COCc4ccccc4)[nH]c3c2)cc1 | sample A patient iPSC NPCs | cell protection, MTS |  | up to 100 µM, 24 h |  | Emax | 20% |

| SMILES | tested on | test | test system | conditions | scale | endpoint | value |
| --- | --- | --- | --- | --- | --- | --- | --- |
| CCCCCCNC(=O)n1cc(F)c(=O)[nH]c1=O | SW-403 | LC-MS, measured: Cer(d18:1/16:0) |  | 0.1 µM |  | ceramide level | 20.4 ± 1 pmol/mg protein |
| CCCCN1C[C@H](O)[C@@H](O)[C@@H](O)[C@H]1CO | sample C patient fibroblasts | Gb3 level lowering, LC-MS/MS, measured: Gb3 d18:1/22:0 |  | 216 h |  | IC50 | 6.4 µM |
| C=CC(=O)N1CCC[C@@H](c2ccc(C(N)=O)c3[nH]ccc23)C1 | Ramos | calcium flux, FLIPR |  | 4 h preincubation |  | maximum inhibition | 33.6% |
| O=C(/C=C/C=C/C=C/C1CCCCC1)NC1=C[C@@](O)(/C=C/C=C/C=C/C(=O)NC2=C(O)CCC2=O)[C@@H]2O[C@@H]2C1=O | NCI-H2009 | cell growth, CellTiter-Glo |  | 78 h |  | GI50 | > 30 µM |
| CNC(=O)c1ccccc1Sc1ccc2c(/C=C/c3ccccn3)n[nH]c2c1 | iCell Cardiomyocytes (hiPSC-derived) | xCELLigence Cardio impedance |  | concentration not given, 2 h | reference: control | beat rate | 94.1% |
| Nc1ncnc2c1ncn2[C@@H]1O[C@H](COP(=O)(O)OP(=O)(O)O)[C@@H](O)[C@H]1O |  | binding, equilibrium dialysis LC-MS |  | 5 µM, thermostabilized A2AR-BRIL construct | reference: no-protein control, direction not given | z-scored log2 fold change | -0.584 |
| CCC(=O)N1CCC(COCC(=O)N2CCN(c3nc(-c4cnc(N)nc4C(F)F)nc(N4CCOC[C@@H]4C)n3)CC2)CC1 | SK-OV-3 | resazurin growth rate inhibition |  | 72 h |  | GR50 | 267 nM |
| Cc1cc(Nc2ncc(Cl)c(Nc3ccccc3S(=O)(=O)C(C)C)n2)c(OC(C)C)cc1C1CCNCC1 | Ba/F3 EML4-ALK variant 1 S1206F | cell viability |  |  |  | Emax | 100% |
| COc1cc2c(cc1O)[C@@H](Cc1ccc(O)c(Oc3cc4c(cc3OC)CCN(C)[C@@H]4Cc3ccc(O)cc3)c1)N(C)CC2 | 3T3-L1 | adipocyte lipid accumulation, Nile Red staining |  | 10 µM |  | inhibition | 28.3 ± 0.8% |
| COc1cc([C@@H]2c3cc4c(cc3[C@@H](O[C@@H]3O[C@@H]5CO[C@@H](C)O[C@H]5[C@H](O)[C@H]3O)[C@H]3COC(=O)[C@H]23)OCO4)cc(OC)c1O | DF-1 | annexin V staining |  | 5 µM, 72 h |  | apoptotic cells | 16.1 ± 3.15% |
| Clc1ccc(Nc2nnc(Cc3ccncc3)c3ccccc23)cc1 | iCell Cardiomyocytes (hiPSC-derived) | cellular impedance |  | concentration not given, 24 h | reference: control | cell index | 100% |
| Cc1cc(Nc2ncc(Cl)c(Nc3ccccc3S(=O)(=O)C(C)C)n2)c(OC(C)C)cc1C1CCNCC1 | CLB-GE | phosphoproteomics LC-MS/MS, measured: ATR phosphorylation |  | 200 nM, 60 min | reference: untreated | log2 fold change | -2.06 |
| COc1ccc(Cc2ncnc3cc(OC)c(OC)cc23)cc1 | A549 | mitochondrial oxygen consumption, Seahorse XF96 |  | 10 µM |  | inhibition | 23% |
| CC(C)(C)c1cnc(CSc2cnc(NC(=O)C3CCNCC3)s2)o1 | iCell Cardiomyocytes (hiPSC-derived) | xCELLigence Cardio impedance |  | concentration not given, 2 h | reference: control | beat amplitude | 102% |
| COc1cnc2cccc(N3CCc4c(cc(Cn5ccnc5C)cc4-c4cn(C)nc4C(F)(F)F)C3=O)c2c1 | CAKI-2 | cell growth, inhibitor |  | 120 h |  | EC50 | > 30 µM |
| Clc1ccc(C2(c3ccc(-c4cn[nH]c4)cc3)CCNCC2)cc1 | SK-OV-3 | ATP |  | 0.01 µM, 4 days, 3D U-bottom low-attachment | reference: untreated | relative cell number | 113% |
| C=CC1=C(C)c2cc3[n-]c(cc4nc(cc5[n-]c(cc1n2)c(C)c5C=C)C(C)=C4CCC(=O)O)c(CCC(=O)O)c3C.[Zn+2] | SH-SY5Y | RNA-seq, measured: SIRPG-AS1 |  | 5 µM, 5 h | reference: untreated | log2 fold change | 9.97 |
| CN(C)C(=N)NC(=N)N | NLRP3 inflammasome (mouse) |  | mouse BMDM | 10 µM |  | inhibition | 87.9% |
| CCc1cnc(N2CCC(c3nc(COc4ccc(-n5cnnn5)cc4)cs3)CC2)nc1 | HEK293T | RNA-seq, measured: ASNS mRNA |  | 10 µM, 6 h | reference: vehicle | log2 fold change | 1.11 |
| COc1ccc2c(N(C)c3ccc(/C(C)=N/OCCN)cc3)c3c(Cl)coc3nc2c1 | LNCaP C-81 | DCF-DA flow cytometry |  | concentration not given, 72 h, steroid-reduced medium |  | increase in total ROS | ~60% |
| CN1CCN(c2ccc3[nH]c(-c4ccc5[nH]c(-c6ccc(C(F)(F)F)cc6)nc5c4)nc3c2)CC1 | KM12 | SRB |  | 10 µM, 48 h |  | growth percent | 49.7% |
| Cc1cccc(-c2[nH]c(CNc3ccccc3F)nc2-c2ccc3ncnn3c2)n1 | bone marrow CD138+ myeloma cells | XTT |  | 3 µM, mean of three patients |  | viability | 6% |
| Cc1cc(C)n(-c2nc(-c3ccc(Cl)cc3)c3c(NC(=O)c4ccccc4)nnc-3[nH]2)n1 | NCI-H226 | SRB |  | 10 µM, NCI60 single-dose screen | reference: untreated | cell growth | 91.4% |
